Published values of several laboratories.
Compare with care: the assays were run in different laboratories. Numbers after ± are the reported error.

| SMILES | assay | test system | setting | unbound fraction |
| --- | --- | --- | --- | --- |
| Cc1ccsc1C(=O)Nc1cc(CN2CCN(C(=O)CO)CC2)ccc1/C=C/c1n[nH]c2ccccc12 | equilibrium dialysis | mouse plasma | up to 10 000 ng eq/mL, 6 h, pH 7.2 | 0.048 to 0.057 |
| C[C@H]1CO[C@@H]2Cn3cc(C(=O)NCc4ccc(F)cc4F)c(=O)c(O)c3C(=O)N12 | – | HIV-infected adults, plasma | intramuscular, at Cmax, every 8 weeks, median | 0.00103 |
| COCCOc1nc(N)c2nc(O)n(Cc3ccc(C(=O)NCCOCCOCCOCCOCCOCCOCCN=[N+]=[N-])cc3)c2n1 | rapid equilibrium dialysis | dialyzed fetal bovine serum | – | 0.629 |
| Cn1cnc2c(F)c(Nc3ccc(Br)cc3Cl)c(C(=O)NOCCO)cc21 | – | ESRD on hemodialysis, plasma | oral, 50 mg, dosed after dialysis, median | 0.556% |
| COCCOc1nc(N)c2nc(O)n(Cc3ccc(C(=O)NCCOCCOCCOCCOCCOCCOCCn4cc(CCC(=O)O)nn4)cc3)c2n1 | rapid equilibrium dialysis | dialyzed fetal bovine serum | – | 0.504 |
| CC(C)C[C@H](NC(=O)CNC(=O)c1cc(Cl)ccc1Cl)B(O)O | rapid equilibrium dialysis | severe hepatic impairment patients, plasma | 3 h | 0.0098 ± 0.0046 |
| CCCS(=O)(=O)Nc1ccc(F)c(C(=O)c2c[nH]c3ncc(-c4ccc(Cl)cc4)cc23)c1F | equilibrium dialysis | 100% human plasma | 5 to 500 µM, after 30 min in uptake plate | 1.2e-05 ± 1.9e-06 |
| Clc1ccccc1C(c1ccccc1)(c1ccccc1)n1ccnc1 | equilibrium dialysis | 5 nM CYP26B1 in buffer | 1 µM, 12 h, pH 7.4, IC50 assay conditions | 0.43 ± 0.031 |

Repeated from above:
| SMILES | assay | test system | setting | unbound fraction |
| --- | --- | --- | --- | --- |
| Cn1cnc2c(F)c(Nc3ccc(Br)cc3Cl)c(C(=O)NOCCO)cc21 | – | ESRD on hemodialysis, plasma | oral, 50 mg, dosed after dialysis, median | 0.556% |
